Measurements collected from several papers.
Every numbered part comes from another study and shows a few of its results, in no order. Several values in a cell are separate wells, animals, samples, runs or records.
UniProt Q2M2I8, sequence (whole entry, looked up): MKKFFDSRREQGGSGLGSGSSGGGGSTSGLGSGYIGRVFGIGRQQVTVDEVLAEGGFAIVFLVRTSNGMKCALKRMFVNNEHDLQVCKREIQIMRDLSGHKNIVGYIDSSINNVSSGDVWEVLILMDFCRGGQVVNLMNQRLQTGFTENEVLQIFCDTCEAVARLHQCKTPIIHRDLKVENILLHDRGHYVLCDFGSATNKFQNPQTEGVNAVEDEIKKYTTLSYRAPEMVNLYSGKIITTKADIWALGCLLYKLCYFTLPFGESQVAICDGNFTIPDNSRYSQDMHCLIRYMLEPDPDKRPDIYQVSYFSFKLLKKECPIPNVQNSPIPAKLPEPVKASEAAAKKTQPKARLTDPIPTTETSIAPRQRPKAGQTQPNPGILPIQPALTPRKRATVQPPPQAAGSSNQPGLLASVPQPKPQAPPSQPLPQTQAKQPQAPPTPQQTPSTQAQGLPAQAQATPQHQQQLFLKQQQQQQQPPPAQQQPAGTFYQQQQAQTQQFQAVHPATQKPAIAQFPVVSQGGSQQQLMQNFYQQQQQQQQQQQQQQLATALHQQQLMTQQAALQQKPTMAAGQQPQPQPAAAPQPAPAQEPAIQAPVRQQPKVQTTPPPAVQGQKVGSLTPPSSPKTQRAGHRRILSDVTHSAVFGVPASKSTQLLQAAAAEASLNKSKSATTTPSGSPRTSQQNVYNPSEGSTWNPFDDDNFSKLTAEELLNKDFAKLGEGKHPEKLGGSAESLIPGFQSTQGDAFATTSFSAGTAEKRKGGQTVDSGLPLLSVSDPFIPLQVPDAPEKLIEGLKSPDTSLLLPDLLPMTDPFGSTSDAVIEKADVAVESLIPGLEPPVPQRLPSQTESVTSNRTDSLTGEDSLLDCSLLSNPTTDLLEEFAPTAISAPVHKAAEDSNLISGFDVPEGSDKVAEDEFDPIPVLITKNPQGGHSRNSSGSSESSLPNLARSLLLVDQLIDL

Sample 1
Cell line: HuT78
Tested at: 2 µM
Time: 48 h
Baseline: untreated
`Cn1cc(-c2ccc3nnc(C(F)(F)c4ccc5ncccc5c4)n3n2)cn1` gave a viability of 96.8%.
The viability of `CC(C)Nc1cc(-c2c[nH]c(C(=O)N[C@H](CO)c3cccc(Cl)c3)c2)c(Cl)cn1` is reported as 88%.
With `S=C(NCc1ccc2c(c1)OCO2)N1CCN(c2ncnc3c2oc2ccccc23)CC1` the viability was 87.1%.
For `Cc1cc(F)c(Nc2ncnc3cc(OCc4ccccc4)ccc23)cc1O`, the viability was 110%.
With `COc1ccccc1-c1cc(Nc2cccc(CS(N)(=O)=O)c2)ncn1` the viability was 138%.
The viability of `O=C(c1ccc(F)c(F)c1Nc1ccc(I)cc1F)N1CC(O)([C@@H]2CCCCN2)C1` is reported as 92.2%.

Sample 2
Species: mouse
Sample: microsomes or S9
Tested at: 2 µM
Time: 0.5 h
The remaining compound of `CC(C)(C)c1ccc(Cn2ncc3ccccc32)cc1` is reported as 0.00805%.
The remaining compound of `C[C@@H](NC(=O)c1cc(S(=O)(=O)N(C)C)c[nH]1)c1ncc[nH]1` is reported as 47.6%.
`Oc1ccc2c(c1)oc1c(C3=Cc4ccccc4OC3)c3c[nH]nc3nc12` gave a remaining compound of 28%.
For `CC(C)c1ccc(NC(=O)CCNS(=O)(=O)c2cc(Br)cnc2N)cc1`, the remaining compound was 1.21%.
For `CCOC(=O)c1cnn(-c2ccc(C(=O)O)cc2)c1N`, the remaining compound was 1.78%.

Sample 3
Organism: Sarcocystis neurona
Read-out: parasite growth
Tested at: 10 µM
Notes: secondary screen
With `O=c1[nH]cc(F)c(=O)[nH]1` the inhibition was 59.5%.
For `CC(C)(C)NCC(O)c1ccc(O)c(CO)c1.CC(C)(C)NCC(O)c1ccc(O)c(CO)c1.O=S(=O)(O)O` (stereo not drawn), the inhibition was -31.9%.
For `CC(=O)OCC(=O)[C@@]12OC(C)(C)O[C@@H]1C[C@H]1[C@@H]3C[C@H](F)C4=CC(=O)C=C[C@]4(C)[C@@]3(F)[C@@H](O)C[C@@]12C`, the inhibition was -56.6%.
The inhibition of `Nc1ncnc2c1ncn2[C@@H]1O[C@H](CO)C[C@H]1O` is reported as -22.3%.
The inhibition of `OCc1cc(C(O)CNCCCCCCOCCCCc2ccccc2)ccc1O` (stereo not drawn) is reported as 25.2%.
`CCn1cc(C(=O)O)c(=O)c2ccc(C)nc21` has an inhibition of -28.3%.

Sample 4
Cell line: mouse MPNST tumor cells
Technique: high-content nuclear imaging
Item: cell number
Tested at: 10 µM
Time: 12 h
Notes: mean of 2 replicates
Baseline: plate mean
Reading: higher = more cells
`COc1ccc2c(c1)c(CC(=O)OCC(=O)O)c(C)n2C(=O)c1ccc(Cl)cc1` gave a nuclei count of 2.57 z-score.
The nuclei count of `Nc1nc(Cl)nc2c1ncn2[C@@H]1O[C@H](CO)[C@@H](O)[C@@H]1F` is reported as -3.88 z-score and -4.72 z-score.
With `CC(C)C[C@H](NC(=O)[C@H](Cc1ccccc1)NC(=O)c1cnccn1)B(O)O` the nuclei count was -5.71 z-score.
The nuclei count of `N[C@@H](C(=O)N[C@@H]1C(=O)N2C(C(=O)O)=C(Cl)CS[C@H]12)c1ccccc1` is reported as -0.952 z-score.

Sample 5
Target: Serine/threonine-protein kinase 38 (STK38, Homo sapiens, UniProt Q15208)
UniProt Q15208, sequence (whole entry, looked up): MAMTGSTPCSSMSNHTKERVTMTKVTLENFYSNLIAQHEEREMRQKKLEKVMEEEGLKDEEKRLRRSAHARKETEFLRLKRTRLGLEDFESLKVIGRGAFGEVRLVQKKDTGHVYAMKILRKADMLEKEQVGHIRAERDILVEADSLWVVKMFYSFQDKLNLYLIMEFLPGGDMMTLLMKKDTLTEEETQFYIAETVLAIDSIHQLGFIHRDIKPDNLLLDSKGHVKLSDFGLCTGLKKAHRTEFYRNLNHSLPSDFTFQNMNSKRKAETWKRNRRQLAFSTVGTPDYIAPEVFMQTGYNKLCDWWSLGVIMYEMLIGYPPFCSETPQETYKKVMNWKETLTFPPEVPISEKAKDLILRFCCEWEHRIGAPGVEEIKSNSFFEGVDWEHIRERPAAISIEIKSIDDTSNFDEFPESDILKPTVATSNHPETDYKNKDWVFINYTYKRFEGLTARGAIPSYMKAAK
Read-out: enzyme activity
Mode: inhibitor
Tested at: 0.5 µM
Baseline: control
For `Oc1ccc(-c2nc(-c3ccncc3)c(-c3ccc(F)cc3)[nH]2)cc1`, the remaining activity was 99.8%.
With `C#Cc1cccc(Nc2ncnc3cc(OCCOC)c(OCCOC)cc23)c1` the remaining activity was 101%.
With `N#CC(C#N)=C(N)/C(C#N)=C/c1ccc(O)cc1` the remaining activity was 96.9%.
For `Cc1ccc(NC(=O)c2ccc(CN3CCN(C)CC3)cc2)cc1Nc1nc(-c2cccnc2)cs1`, the remaining activity was 95.9%.
`CNC(=O)c1cc(Oc2ccc(NC(=O)Nc3ccc(Cl)c(C(F)(F)F)c3)cc2)ccn1` has a remaining activity of 99.8%.
With `Cc1nc(-c2ccccc2)c(-c2ccncc2)o1` the remaining activity was 97.3%.
For `O=C1NC(=O)C(c2cn(CCCn3ccnc3)c3ccccc23)=C1Nc1ccccc1`, the remaining activity was 99.1%.
`Nc1ccc2ncnc(NCCc3ccc(Oc4ccccc4)cc3)c2c1` gave a remaining activity of 97.9%.
`NCCNc1ncc(C(N)=O)c(Nc2cccc(C(F)(F)F)c2)n1` gave a remaining activity of 78.7%.
`Cc1cccc(-c2[nH]c(C(C)(C)C)nc2-c2ccc3c(c2)OCO3)n1` has a remaining activity of 91.7%.
The remaining activity of `CCOC(=O)c1c(C)[nH]c(/C=C2\C(=O)Nc3ccccc32)c1C` is reported as 101%.
`COc1cc2nccc(Oc3ccc(NC(=S)NC(=O)c4ccccc4C)cc3)c2cc1OC` has a remaining activity of 107%.
The remaining activity of `COc1cc2ncnc(Nc3ccc(F)c(Cl)c3)c2cc1OCCCN1CCOCC1` is reported as 105%.
With `COc1cc2ncnc(Nc3ccc(Oc4ccccc4)cc3)c2cc1OC` the remaining activity was 105%.
`O=C(O)c1ccc2c3c1cccc3c(=O)n1c3ccccc3nc21` gave a remaining activity of 97.5%.
With `O=C(CCCc1ccc(-c2ccccc2F)cc1)Nc1ccc(O)cc1` the remaining activity was 109%.
The remaining activity of `Nc1ncnc2n[nH]c(Nc3ccc(F)cc3)c12` is reported as 101%.
For `Cc1ccc(Nc2nccc(N(C)c3ccc4c(C)n(C)nc4c3)n2)cc1S(N)(=O)=O`, the remaining activity was 100%.
For `CO[C@H]1C[C@@H]2CC[C@@H](C)[C@@](O)(O2)C(=O)C(=O)N2CCCC[C@H]2C(=O)O[C@H]([C@H](C)C[C@@H]2CC[C@@H](O)[C@H](OC)C2)CC(=O)[C@H](C)/C=C(\C)[C@@H](O)[C@@H](OC)C(=O)[C@H](C)C[C@H](C)/C=C/C=C/C=C/1C`, the remaining activity was 92.8%.

Further values, each from its own experiment
`CC(C)n1cnc(-c2ccc(F)cc2)c1-c1ncc(C(=O)Nc2ccc(N3CCN(C)CC3)cc2)[nH]1` gave a Rhinorrhoea incidence of 0% (IPF patients; 30 mg once daily, adverse event).
`O=C(Nc1cccnn1)N1CC(CC=Cc2cncc(Oc3ccc(C(F)(F)F)cn3)n2)C1` gave a remaining binding of 100% (AP2-associated protein kinase 1 (AAK1, Homo sapiens, UniProt Q2M2I8); KINOMEscan; 1 µM; baseline: control).
